{"data": "Assay results pooled from the literature", "note": "Several values in a cell are separate wells, animals, samples, runs or records. ± gives the spread as reported.", "UniProt P05181, sequence (whole entry, looked up)": "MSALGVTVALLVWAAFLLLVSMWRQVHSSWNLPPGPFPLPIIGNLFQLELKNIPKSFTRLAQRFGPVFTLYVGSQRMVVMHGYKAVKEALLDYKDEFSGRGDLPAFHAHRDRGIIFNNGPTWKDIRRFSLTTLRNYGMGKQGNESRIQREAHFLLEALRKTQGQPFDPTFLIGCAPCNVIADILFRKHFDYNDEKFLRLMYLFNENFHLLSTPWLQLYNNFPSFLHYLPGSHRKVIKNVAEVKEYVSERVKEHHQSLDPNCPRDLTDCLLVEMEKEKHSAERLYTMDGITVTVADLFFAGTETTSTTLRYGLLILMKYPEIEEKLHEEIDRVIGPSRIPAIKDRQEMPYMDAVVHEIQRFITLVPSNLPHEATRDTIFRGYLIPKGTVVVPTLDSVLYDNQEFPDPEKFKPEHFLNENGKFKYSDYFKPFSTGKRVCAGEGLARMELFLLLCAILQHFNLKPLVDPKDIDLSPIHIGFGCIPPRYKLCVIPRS"}
{"SMILES": "O=C1NC2(CC2)COc2ncc(F)cc2[C@H]2COCCN2c2ccn3ncc1c3n2", "test system": "Sprague-Dawley rat, male, serum", "conditions": "oral, 20 mg/kg/day, end of treatment, 4-week subacute toxicity", "measurement": "serum LDH activity", "value": "880 ± 310 U/L"}
{"SMILES": "Cc1ccc(NS(=O)(=O)c2c(C(=O)N3CCCCCC3)c(C)n(C)c2C)c(Cl)c1", "target or system": "CV-1", "test system": "African green monkey cells", "conditions": "0.137 µM, 60 (unit not given)", "measurement": "viability", "value": "100% and 96.6%"}
{"SMILES": "CC[C@H](C)[C@H](NC(=O)[C@H](CC(C)C)NC(=O)[C@H](CCCNC(=N)N)NC(=O)CNC(=O)CNC(=O)[C@H](CCCCN)NC(=O)[C@H](CCCNC(=N)N)NC(=O)[C@H](CC(C)C)NC(=O)[C@H](CC(C)C)NC(=O)[C@H](CCCNC(=N)N)NC(=O)[C@@H](NC(=O)[C@H](CC(C)C)NC(=O)[C@@H](N)CO)[C@@H](C)O)C(=O)NCC(=O)N[C@@H](Cc1c[nH]c2ccccc12)C(=O)N[C@@H](CCCNC(=N)N)C(=O)N[C@@H](Cc1c[nH]c2ccccc12)C(=O)N[C@@H](CCC(=O)O)C(=O)N[C@@H](CCCCN)C(=O)N[C@H](C(=O)N[C@@H](CCCNC(=N)N)C(=O)N[C@@H](CC(N)=O)C(=O)N[C@@H](Cc1c[nH]c2ccccc12)C(=O)N[C@H](C(=O)N[C@@H](CCCNC(=N)N)C(=O)N[C@@H](CCCNC(=N)N)C(=O)N[C@H](C(=O)N[C@H](C(=O)N[C@@H](CCC(=O)O)C(=O)N[C@@H](CCCCN)C(=O)N[C@@H](CCCNC(=N)N)C(=O)N[C@@H](CCCCN)C(=O)N1CCC[C@H]1C(=O)N[C@@H](CC(N)=O)C(=O)N[C@@H](CCCCN)C(=O)O)[C@@H](C)CC)[C@@H](C)CC)[C@@H](C)CC)[C@@H](C)O", "target or system": "rat erythrocytes", "test": "haemolysis", "conditions": "1 h, 37 °C, 2% erythrocytes in PBS", "measurement": "HC50", "value": "2.84 log10 µg/mL"}
{"SMILES": "Oc1ccc2c3c1OC1C(O)C=CC4C(C2)N(CC2CCC2)CCC341 (stereo not shown)", "conditions": "phenolate site", "measurement": "log k protonation constant", "value": 9.14}
{"SMILES": "CC[C@H](C)[C@H](NC(=O)[C@H](C)NC(=O)[C@H](CCCCN)NC(=O)[C@H](CC(C)C)NC(=O)[C@@H](N)Cc1ccccc1)C(=O)N[C@@H](CCCCN)C(=O)N[C@@H](CCCCN)C(=O)N[C@@H](Cc1ccccc1)C(=O)NCC(=O)N[C@@H](CCCCN)C(=O)N[C@@H](CCC(=O)O)C(=O)N[C@@H](Cc1ccccc1)C(=O)N[C@@H](CCCCN)C(=O)N[C@@H](CCCCN)C(=O)N[C@H](C(=O)NCC(=O)N[C@@H](C)C(=O)N[C@@H](CCCCN)C(=O)N[C@@H](CC(C)C)C(=O)N[C@@H](CCCCN)C(=O)O)[C@@H](C)CC", "target or system": "HaCaT", "test": "cell growth or viability, MTT", "conditions": "64 µg/mL", "measurement": "viability", "value": "85.3%"}
{"SMILES": "Oc1ccc2c3c1O[C@H]1[C@@H](O)CC[C@H]4[C@@H](C2)N(CC2CCC2)CC[C@@]341", "measurement": "log tautomerization constant", "value": 0.55}
{"SMILES": "CC(=O)NCCCC[C@@H]1NC(=O)[C@H](Cc2c[nH]c3c(C)cccc23)NC(=O)[C@H]([C@@H](C)O)NC(=O)[C@H](CC(N)=O)NC(=O)[C@@H](NC(C)=O)C(C)(C)SSC(C)(C)[C@@H](C(=O)N[C@@H](Cc2ccc(OCCN)cc2)C(=O)N[C@@H](Cc2ccc3ccccc3c2)C(=O)NC2(C(=O)N[C@@H](CCC(=O)O)C(=O)N[C@@H](CC(N)=O)C(=O)N[C@@H](Cc3cccnc3)C(=O)N(C)CC(N)=O)CCOCC2)NC1=O", "target or system": "human alpha-1-acid glycoprotein 0.07%", "test": "equilibrium dialysis", "conditions": "0.01 µM", "measurement": "protein binding", "value": "6.68 ± 0.58%"}
{"SMILES": "Cc1cc(-c2ccc3ccccc3c2)nnc1NCCN1CCN(C)CC1", "target or system": "Cytochrome P450 2E1 (CYP2E1, Homo sapiens, UniProt P05181)", "test": "substrate", "test system": "recombinant enzyme", "conditions": "1000 nM, 30 min", "measurement": "remaining compound", "value": "103%"}
{"SMILES": "O=C1CC[C@@]2(O)[C@H]3Cc4ccc(O)c5c4[C@@]2(CCN3CC2CCC2)[C@H]1O5", "conditions": "phenolate site", "measurement": "log k protonation constant", "value": 9}
{"SMILES": "Cc1nc2cccc(OCC(C)(C)C(=O)NC(C)C)c2c(N)c1C(=O)[O-].[Na+]", "target or system": "Salmonella typhimurium", "test system": "TA1535", "conditions": "0.80 mg per plate, without S9, plate incorporation", "measurement": "revertant colonies per plate", "value": "14 ± 2"}
{"SMILES": "Cc1ccn2c(-c3csc(Nc4ccccn4)n3)c(C)nc2c1", "target or system": "HEK-293T", "test": "cytotoxicity", "conditions": "3 days", "measurement": "IC50", "value": "> 10 µM"}
{"SMILES": "CN1CC[C@]23c4c5ccc(O)c4O[C@H]2[C@H](O)C=C[C@@]3(O)[C@H]1C5", "measurement": "log k amino protonation", "value": 9.63}
{"SMILES": "Cc1sc2c(c1C)C(c1ccc(Cl)cc1)=N[C@@H](CC(=O)OC(C)(C)C)c1nnc(C)n1-2", "test system": "CD1 mouse, male", "conditions": "intravenous, 5 mg/kg", "measurement": "AUC(0-inf)", "value": "2130 ng·h/mL"}
{"note": "Some of these lines once more:"}
{"SMILES": "CC[C@H](C)[C@H](NC(=O)[C@H](CC(C)C)NC(=O)[C@H](CCCNC(=N)N)NC(=O)CNC(=O)CNC(=O)[C@H](CCCCN)NC(=O)[C@H](CCCNC(=N)N)NC(=O)[C@H](CC(C)C)NC(=O)[C@H](CC(C)C)NC(=O)[C@H](CCCNC(=N)N)NC(=O)[C@@H](NC(=O)[C@H](CC(C)C)NC(=O)[C@@H](N)CO)[C@@H](C)O)C(=O)NCC(=O)N[C@@H](Cc1c[nH]c2ccccc12)C(=O)N[C@@H](CCCNC(=N)N)C(=O)N[C@@H](Cc1c[nH]c2ccccc12)C(=O)N[C@@H](CCC(=O)O)C(=O)N[C@@H](CCCCN)C(=O)N[C@H](C(=O)N[C@@H](CCCNC(=N)N)C(=O)N[C@@H](CC(N)=O)C(=O)N[C@@H](Cc1c[nH]c2ccccc12)C(=O)N[C@H](C(=O)N[C@@H](CCCNC(=N)N)C(=O)N[C@@H](CCCNC(=N)N)C(=O)N[C@H](C(=O)N[C@H](C(=O)N[C@@H](CCC(=O)O)C(=O)N[C@@H](CCCCN)C(=O)N[C@@H](CCCNC(=N)N)C(=O)N[C@@H](CCCCN)C(=O)N1CCC[C@H]1C(=O)N[C@@H](CC(N)=O)C(=O)N[C@@H](CCCCN)C(=O)O)[C@@H](C)CC)[C@@H](C)CC)[C@@H](C)CC)[C@@H](C)O", "target or system": "rat erythrocytes", "test": "haemolysis", "conditions": "1 h, 37 °C, 2% erythrocytes in PBS", "measurement": "HC50", "value": "2.84 log10 µg/mL"}
{"SMILES": "Oc1ccc2c3c1O[C@H]1[C@@H](O)CC[C@H]4[C@@H](C2)N(CC2CCC2)CC[C@@]341", "measurement": "log tautomerization constant", "value": 0.55}
